Assay results from different studies.
Numbered parts are unrelated; each lists some results of a single study. Positions count from the first letter of the parent shown.

Block 1
Target: Histone acetyltransferase KAT6A, winged helix 2, GST fusion (KAT6A, Homo sapiens, UniProt Q92794, residues 85-181)
Method: protein binding microarray
Molecule type: double-stranded DNA, one strand shown
Medium: in vitro
Concentration: not given
Setting: 8-mer, flanks averaged, mean of 2 arrays, mostly near background
Baseline: not given
Reading: higher = stronger binding
Quantity: E-score
Residues (chain): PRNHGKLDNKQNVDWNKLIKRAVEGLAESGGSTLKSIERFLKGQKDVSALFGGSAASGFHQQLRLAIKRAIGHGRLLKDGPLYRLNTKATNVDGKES
CAGAATCA: 0.0826
AAAAAAGC: 0.0214
ATTGCCCC: 0.0259
AAACTGCG: 0.00477
TATCACCA: -0.0116
AACGCACA: 0.116
ACTATTTA: -0.021
GATGTTGC: 0.00281
GAGGTACA: -0.0789
AATTCTTC: -0.0808
TCCCAGAA: 0.0397
ATAAACTC: 0.0906
ATATATAC: 0.0365
ATGTCCAG: -0.0988
GCGGTTCC: 0.102
CAGGGAGG: 0.13
CCGGGATA: 0.0121
CGGGACGC: 0.0135
TGTTGGAA: 0.0314
GCGGATAC: 0.0576
CTTGATGA: 0.0305

Block 2
Target: Sal-like protein 4, full length isoform A (SALL4, Homo sapiens, UniProt Q9UJQ4, residues 1-1053)
UniProt Q9UJQ4, sequence (whole entry, looked up): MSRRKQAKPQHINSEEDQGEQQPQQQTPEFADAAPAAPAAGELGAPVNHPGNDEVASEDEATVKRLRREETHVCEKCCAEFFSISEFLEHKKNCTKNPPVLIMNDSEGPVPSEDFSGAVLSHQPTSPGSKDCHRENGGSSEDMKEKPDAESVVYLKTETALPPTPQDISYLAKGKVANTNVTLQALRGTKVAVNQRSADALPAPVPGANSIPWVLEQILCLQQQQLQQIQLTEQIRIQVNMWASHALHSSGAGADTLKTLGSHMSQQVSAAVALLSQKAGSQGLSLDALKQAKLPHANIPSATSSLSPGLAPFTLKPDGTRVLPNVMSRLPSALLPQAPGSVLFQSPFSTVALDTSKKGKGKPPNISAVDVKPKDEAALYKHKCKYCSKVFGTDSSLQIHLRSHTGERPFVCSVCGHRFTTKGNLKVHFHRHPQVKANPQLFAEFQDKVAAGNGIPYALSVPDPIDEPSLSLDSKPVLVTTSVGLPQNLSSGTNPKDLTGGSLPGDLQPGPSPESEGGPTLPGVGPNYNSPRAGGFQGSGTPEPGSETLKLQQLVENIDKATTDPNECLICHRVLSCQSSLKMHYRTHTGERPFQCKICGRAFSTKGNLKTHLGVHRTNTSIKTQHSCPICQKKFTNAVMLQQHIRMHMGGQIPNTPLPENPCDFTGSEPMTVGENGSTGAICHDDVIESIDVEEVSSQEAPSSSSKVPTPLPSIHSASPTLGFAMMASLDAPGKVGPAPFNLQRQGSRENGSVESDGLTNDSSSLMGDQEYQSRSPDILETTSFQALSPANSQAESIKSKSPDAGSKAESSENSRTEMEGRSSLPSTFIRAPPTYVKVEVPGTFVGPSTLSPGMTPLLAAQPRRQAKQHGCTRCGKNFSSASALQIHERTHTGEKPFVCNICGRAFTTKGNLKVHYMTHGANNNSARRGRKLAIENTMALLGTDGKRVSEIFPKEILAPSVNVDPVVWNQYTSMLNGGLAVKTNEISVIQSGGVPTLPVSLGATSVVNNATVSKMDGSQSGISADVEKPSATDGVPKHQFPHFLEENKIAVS
Method: universal PBM
Molecule type: double-stranded DNA, one strand shown
Medium: in vitro
Concentration: 600 nM
Setting: 8-mer, flanks averaged, mean of replicates
Reading: higher = stronger binding
Quantity: E-score
AGGTTGGG: -0.137
CGCACACA: -0.0346
CGCCGCCC: -0.467
AATCTCCG: -0.171
TAAGCTTA: 0.2
AGCCCCCT: -0.333
GTGGAATA: 0.149
AAAACAAA: 0.291
CAAACTCC: -0.0402
GGCCGATA: -0.0526
AGTTCATA: 0.315
GAAAGACA: 0.0884
GAGTCAAA: 0.0156
GAGGAATC: -0.14
ATGCAGTG: -0.106
ATCATAGG: 0.152
ATTGCGAA: 0.111
ACGTCGGG: -0.358
AGGAAGTA: 0.0261
GTAGGCAC: -0.299
CGGTTGCC: -0.294
ATACAAAA: 0.343
CCACTTTC: -0.00705
CAATTAAA: 0.229
CGCTTCCA: -0.189

Block 3
Target: RNA binding protein fox-1 homolog 2, RRM domain, GST-SBP tag (RBFOX2, Homo sapiens, UniProt O43251-10, residues 100-194)
Method: RNA Bind-n-Seq
Molecule type: RNA
Medium: in vitro
Concentration: 365 nM
Setting: natural RNA segment, single round, ends assumed
Baseline: no-protein control
Reading: higher = stronger binding
Quantity: RBNS enrichment (R)
Construct (chain): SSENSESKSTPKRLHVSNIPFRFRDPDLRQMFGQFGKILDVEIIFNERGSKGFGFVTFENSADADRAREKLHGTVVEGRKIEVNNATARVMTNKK
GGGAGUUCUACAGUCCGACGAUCUUGUAGCAGCUAUAUAUUUCCCCUUGGUCCCAAGCCUGAUACUUUAGCCAUCAUAACUCACUAACAGGGAGAAGUAGCUAGUAGCAAUGUGCCUUGAUUGAUUAGAUAAAUGGAAUUCUCGGGUGCCAA: 0.28
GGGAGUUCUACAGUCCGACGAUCAAUGAUUUUCAAACUUUACAGCUUCAGAAUCACCCAGAGGGCUUGUUAAGACACUACUUGGUGGACCUCAACCCCAGAACCACCAAAUUUGGCAUUUCUAAGUUCCUAGGUGGAAUUCUCGGGUGCCAA: 0.211
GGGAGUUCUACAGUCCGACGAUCUAAAAUAGGAUGGAGUGCUCUGUUGAUCAUUUGGGAGAUGUAGGUUACCUGAUUUGUGCCUUAGGAUGCAGCGUGAAGCAGAAGUCCAUAUUGCAAUUAUGAUUUUAGAAUGGAAUUCUCGGGUGCCAA: 3.57
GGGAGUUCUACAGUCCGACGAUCUGUUUGCACACAUUGGUAGACUGUUAUCAUUUGUGGUGGGAACCCAUGUAAAUAAGUAGACUGUAAAGAGAGACUAUCUUGCAUUAUGACUGUAUGAAUUUCUAAGUGCUUGGAAUUCUCGGGUGCCAA: 0.646
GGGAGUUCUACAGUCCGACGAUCUGGGGUUUUUUUGUACAAAUUUAGCUAAUAGCUACAGGCUGAGAGAAUUGUAACAUAGCAUGACAAAUUUUGUGUUGACUUGAAAGGAAUCACACCAUUAUUCCUUAGAAUGGAAUUCUCGGGUGCCAA: 19.9
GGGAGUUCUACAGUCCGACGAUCAGUCCUGCUGACCACCUAGUCAUGGACAAAGGCCCAGGACCAGUGACACCCUGCGUCCCUGUGUGCAUUAAGUUCAUUCUGGGUCGCAGCCAUGAAGUGUCACCAGUAUCUGGAAUUCUCGGGUGCCAA: 0.21
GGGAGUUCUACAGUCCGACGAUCCUCUCUGUGAAUACCUACCCCCUUCUGGCCACGGUGCCAUACCUGUUUCUUCCUGUGACUGUAGAGACAGUUCUAGACCUUUGUGAUAGAACUAAAAUGCUCUCUGUACUUGGAAUUCUCGGGUGCCAA: 0.268
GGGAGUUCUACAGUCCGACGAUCAACGAACGCUGCAGAGUUUACUGAUGUAUAUCAAAGGCCAAUAAGCUCUUUUAAUUGGUGACAGAUCAUGCGGUAUGUCCCUAUUACAAAUGUAAGUCUUGGAGAAGGGUUGGAAUUCUCGGGUGCCAA: 0.353
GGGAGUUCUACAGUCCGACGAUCCCCUGACUCCCAUGCUGUGCUUGCCGCUCUGAAACAAACAGAGGCUGGAACUUUGUGGUCCUUGCCGAGUUUUGUAGGGGUCACUGUCACAUGCUUGUGCCCUGGAAGCCUGGAAUUCUCGGGUGCCAA: 0.355
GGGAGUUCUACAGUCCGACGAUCUGCUCUUUGACUUGGUUUCUUCUUGCUCCCAUAUCAUCAAAUAUUGGAGCCUAUAAUUUUUUUACCUUACAUUUUAGGUAGAAACCAAAUAAAAGAUUUUGCUAAGAAGAUGGAAUUCUCGGGUGCCAA: 0.426
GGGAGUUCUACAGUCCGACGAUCAGUGUGUGUGUGUGACUAGACCUCUCAUUUUAAGCUCUAGUCGUAGCACUUUUUCAGAGUCUCCUAGGCGCUGUUGCAGCCCAGCUGGGGCAGCUAGCAUGCCAGGUUGGUGGAAUUCUCGGGUGCCAA: 9.42
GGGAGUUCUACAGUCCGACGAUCCAACCAAGAAGGCUCAGCUGUCAUCACUUCAGAGAGGAAGGAAGAAUCUUCACUUAGCCUCAGACUUCAGGUGCAUUGACCCAUCCAUUAGUAAAGCUGCUUUGAACCAUUGGAAUUCUCGGGUGCCAA: 0.456

Block 4
Target: CCNE1, cyclin fold, Cln2 fusion (human)
Method: yeast growth competition, sequencing
Medium: yeast
Setting: weak parent motif
Baseline: not given
Reading: higher = stronger binding
Quantity: normalised enrichment score
Starting sequence: SLBP docking peptide (human); ARYKRKLLINDFG
K6Y: 0.786
I9Q: -0.316
K6P: 0.0915
L7G: 0.353
D11P: 1.84
G13D: 0.272
N10G: 1.65
D11Y: 1.68
N10I: 1.33
L8P: 0.597
L7F: 0.57
K4A: 0.478
L7N: 0.976
L7Q: 0.146
D11L: 1.66
L8K: -0.553
G13S: -0.374
A1Q: -0.652
A1K: -0.866
A1Y: 0.826
I9A: 0.202
L7E: 0.0822
L7S: 0.261
G13P: 0.909

Block 5
Target: Ras GTPase-activating protein-binding protein 1, C-terminal RGG region (G3BP1, Homo sapiens, UniProt Q13283)
UniProt Q13283, sequence (whole entry, looked up): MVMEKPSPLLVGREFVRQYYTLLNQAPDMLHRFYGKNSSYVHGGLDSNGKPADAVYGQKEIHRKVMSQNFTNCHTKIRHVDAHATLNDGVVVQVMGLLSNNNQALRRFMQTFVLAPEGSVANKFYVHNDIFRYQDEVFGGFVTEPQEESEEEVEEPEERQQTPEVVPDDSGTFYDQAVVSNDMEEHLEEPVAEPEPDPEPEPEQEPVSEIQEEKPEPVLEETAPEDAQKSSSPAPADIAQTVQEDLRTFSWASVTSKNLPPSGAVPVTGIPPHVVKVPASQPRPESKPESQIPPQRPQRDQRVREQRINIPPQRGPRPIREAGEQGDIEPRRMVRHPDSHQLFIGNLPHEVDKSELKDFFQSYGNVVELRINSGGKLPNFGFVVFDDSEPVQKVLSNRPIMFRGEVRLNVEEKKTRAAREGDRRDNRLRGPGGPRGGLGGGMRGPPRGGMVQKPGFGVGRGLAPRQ
Method: RNA Bind-n-Seq
Molecule type: RNA
Medium: in vitro
Concentration: 1 µM
Setting: whole 134-nt RNA, ends assumed
Added: 150 mM KCl
Baseline: input library
Reading: higher = stronger binding
Quantity: log2 enrichment
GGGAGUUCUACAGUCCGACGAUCUCCUGUGCUACACAUCGUAUGUACCGAAUCGGCCCCCCGGGGCCCCCCGGGCCCCCCGGAAAGUAUUAUGUUACGCCGUUCGGAUCUGCAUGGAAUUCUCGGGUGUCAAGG: -1.25
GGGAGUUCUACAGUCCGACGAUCCCUGUGCUACACAUCGUAUGUACCGAAUCGGGGAAAAAAGGGAAAAAAGGGAAAAAAGGGAAAGUAUUAUGUUACGCCGUUCGGAUCUGCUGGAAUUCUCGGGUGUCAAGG: -1.5
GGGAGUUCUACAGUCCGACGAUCCAAGUCCUGUGCUACACAUCGUAUGUACCGAAUCGGCCCCGGCCCCGGCCCCGGGAAAGUAUUAUGUUACGCCGUUCGGAUCUGCACUUCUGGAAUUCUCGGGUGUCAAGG: -2.15
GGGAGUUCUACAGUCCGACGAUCAAGUCCUGUGCUACACAUCGUAUGUACCGAAUCGGGGUUUUUGGGGUGGGGAGGGGAAAGUAUUAUGUUACGCCGUUCGGAUCUGCACUUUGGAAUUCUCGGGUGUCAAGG: 2.14
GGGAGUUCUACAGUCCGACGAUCUAACUUUAGAGGAGGAUCGGAUGGAUAUGGCAGUGGACGUGGAUUUGGGGAUGGCUAUAAUGGGUAUGGAGGAGGACCUGGAGGUGGCAAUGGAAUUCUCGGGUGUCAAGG: -1.26
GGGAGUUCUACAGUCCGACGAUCAAGUCCUGUGCUACACAUCGUAUGUACCGAAUCGGGAAAAAGGGUGGGUUUUUGGGAAAGUAUUAUGUUACGCCGUUCGGAUCUGCACUUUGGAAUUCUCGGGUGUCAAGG: 1.31
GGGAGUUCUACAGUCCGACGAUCGCAGGAAGUAAAAACAAAUGGAAAUGCUUCGGAUAGUGGCAGGGGUGGCGGUUGCUAAGGAAAGGGUGGGAUGGGAGUGGGUAAAGAGUUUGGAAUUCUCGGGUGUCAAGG: 1.53
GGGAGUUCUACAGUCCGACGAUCCAAGUCCUGUGCUACACAUCGUAUGUACCGAAUCGGGGUUUGGGUUUGGUUUGGGAAAGUAUUAUGUUACGCCGUUCGGAUCUGCACUUCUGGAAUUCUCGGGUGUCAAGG: -0.738
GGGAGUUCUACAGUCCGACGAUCGCAGGAAGUAAAAACAAAUGGAAACGCUUCGGAUAGUGGCAGGGGUGGGGGUUGCUAAGGAAAGGGUGGGAUGGGAGUGGGUAAAGAGUUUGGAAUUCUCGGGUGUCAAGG: 1.8
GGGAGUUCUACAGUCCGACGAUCCUGUGCUACACAUCGUAUGUACCGAAUCGGGGUUUUUGGGGAAAAAGGGGAAAAAAAGGGGAAAGUAUUAUGUUACGCCGUUCGGAUCUGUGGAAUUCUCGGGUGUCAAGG: 0.129
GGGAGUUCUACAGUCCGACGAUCCUGUGCUACACAUCGUAUGUACCGAAUCGGUUUUUUUGGGUUUUUUUGGGGUUUUUUUGGGAAAGUAUUAUGUUACGCCGUUCGGAUCUGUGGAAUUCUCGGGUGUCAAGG: -1.25
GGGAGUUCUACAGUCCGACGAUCCCUGUGCUACACAUCGUAUGUACCGAAUCGGAAAAAAAGGAAAAAAAGGAAAAAAAGGGGAAAGUAUUAUGUUACGCCGUUCGGAUCUGCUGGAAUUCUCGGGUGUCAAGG: -1.89
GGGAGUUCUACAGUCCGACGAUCAAGUCCUGUGCUACACAUCGUAUGUACCGAAUCGGUUUUUGGUUUUUGGUUUUUGGAAAGUAUUAUGUUACGCCGUUCGGAUCUGCACUUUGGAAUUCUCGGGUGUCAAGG: -1.83
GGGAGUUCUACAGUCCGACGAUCUGGGAGGUGGAUUUUGUUUAUUUUUUUAGCGCAUUUCCAGGGGUGGGAAUUUUUUUUUAAUAUGUGUCAUGAAUAAAGUUGUUUUUGAAAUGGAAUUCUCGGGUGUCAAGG: 3.76

Some of these lines once more (block 4):
L8P: 0.597
L7F: 0.57
K4A: 0.478
L7N: 0.976
L7Q: 0.146
D11L: 1.66
L8K: -0.553
G13S: -0.374
A1Q: -0.652
A1K: -0.866
A1Y: 0.826
